Published values collected from several papers.
Protocols differ between the studies behind these lines. ± gives the spread as reported.
preS1 2-48: preS1 fragment, N-myristoyl, TAMRA label (hepatitis B virus)
UniProt O04197, sequence (whole entry, looked up): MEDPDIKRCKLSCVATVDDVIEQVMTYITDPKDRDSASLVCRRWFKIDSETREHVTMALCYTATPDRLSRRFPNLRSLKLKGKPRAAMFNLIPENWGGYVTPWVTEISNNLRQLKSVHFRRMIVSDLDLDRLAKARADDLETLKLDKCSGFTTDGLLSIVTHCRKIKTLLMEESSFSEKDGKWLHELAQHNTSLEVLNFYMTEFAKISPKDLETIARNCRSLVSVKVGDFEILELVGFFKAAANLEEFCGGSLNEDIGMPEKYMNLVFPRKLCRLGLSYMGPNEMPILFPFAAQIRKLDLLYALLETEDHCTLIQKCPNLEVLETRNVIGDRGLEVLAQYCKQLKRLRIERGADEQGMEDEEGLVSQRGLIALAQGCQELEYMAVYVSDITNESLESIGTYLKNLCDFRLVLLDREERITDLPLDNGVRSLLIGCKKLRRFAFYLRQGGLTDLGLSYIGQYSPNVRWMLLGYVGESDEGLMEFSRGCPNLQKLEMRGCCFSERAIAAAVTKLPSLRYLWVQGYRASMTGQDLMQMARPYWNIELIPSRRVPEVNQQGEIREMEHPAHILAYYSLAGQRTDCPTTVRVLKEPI
UniProt Q9LMA8, sequence (whole entry, looked up): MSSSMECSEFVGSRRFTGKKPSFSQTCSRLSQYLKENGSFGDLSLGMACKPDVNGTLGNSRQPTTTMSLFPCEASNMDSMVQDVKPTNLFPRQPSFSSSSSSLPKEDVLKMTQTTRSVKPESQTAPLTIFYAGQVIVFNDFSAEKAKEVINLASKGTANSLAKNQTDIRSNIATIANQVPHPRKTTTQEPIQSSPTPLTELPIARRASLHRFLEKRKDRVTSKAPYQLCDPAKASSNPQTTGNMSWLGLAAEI
UniProt P22303, sequence (whole entry, looked up): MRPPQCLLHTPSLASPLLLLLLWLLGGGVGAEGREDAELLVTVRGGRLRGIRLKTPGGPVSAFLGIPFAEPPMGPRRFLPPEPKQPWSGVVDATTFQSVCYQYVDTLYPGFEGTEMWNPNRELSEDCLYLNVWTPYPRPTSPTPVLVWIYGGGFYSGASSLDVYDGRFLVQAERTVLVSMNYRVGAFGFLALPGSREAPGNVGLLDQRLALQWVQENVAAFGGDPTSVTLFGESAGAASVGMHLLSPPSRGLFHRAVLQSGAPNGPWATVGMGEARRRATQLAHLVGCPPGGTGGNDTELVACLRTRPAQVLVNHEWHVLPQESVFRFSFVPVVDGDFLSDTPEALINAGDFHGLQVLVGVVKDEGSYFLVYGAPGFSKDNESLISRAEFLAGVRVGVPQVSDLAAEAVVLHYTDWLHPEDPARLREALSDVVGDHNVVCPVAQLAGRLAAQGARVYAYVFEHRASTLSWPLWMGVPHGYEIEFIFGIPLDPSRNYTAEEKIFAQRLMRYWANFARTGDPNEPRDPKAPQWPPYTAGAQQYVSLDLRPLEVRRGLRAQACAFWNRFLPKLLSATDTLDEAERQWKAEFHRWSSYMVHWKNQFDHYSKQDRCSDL

| Molecule | target or system | test | test system | setting | how to read | measurement | value |
| --- | --- | --- | --- | --- | --- | --- | --- |
| CC(C)C[C@@H]1NC(=O)[C@H](CCCNC(=N)N)NC(=O)[C@@H]2CCCN2C(=O)[C@@H]2CSSC[C@H](NC(=O)CNC(=O)[C@@H]3CCCN3C(=O)[C@H](CCCCN)NC(=O)[C@H](CC(=O)O)NC(=O)[C@@H](NC(=O)CN)C(C)C)C(=O)N[C@@H](CCCNC(=N)N)C(=O)N[C@@H](Cc3ccc(O)cc3)C(=O)N[C@@H](CC(C)C)C(=O)N[C@@H](Cc3ccccc3)C(=O)NCC(=O)NCC(=O)N[C@H]3CSSC[C@H](NC(=O)CNC1=O)C(=O)N[C@@H](CCCCN)C(=O)NCC(=O)N[C@@H](CCCCN)C(=O)NCC(=O)N[C@@H](Cc1c[nH]cn1)C(=O)N[C@@H](CC(=O)O)C(=O)N[C@@H](Cc1ccc(O)cc1)C(=O)N[C@H](C(=O)N[C@@H](C)C(=O)N[C@@H](Cc1c[nH]c4ccccc14)C(=O)N[C@@H](CC(=O)O)C(=O)NCC(=O)N[C@H](C(=O)N[C@@H](Cc1ccccc1)C(=O)N[C@@H](CO)C(=O)N[C@@H](CC(=O)O)C(=O)O)[C@@H](C)O)CSSC[C@H](NC(=O)[C@H](CC(=O)O)NC(=O)[C@H](CC(=O)O)NC(=O)[C@H](CC(=O)O)NC(=O)[C@H](CO)NC(=O)[C@H](CCCCN)NC3=O)C(=O)N2 | – | current clamp | mouse small DRG neurons | 1 µM, 1 s current ramp | – | latency to first action potential | 196 ± 34.8 ms |
| NTCP Q84R (Macaca fascicularis) | preS1 2-48 | preS1-TAMRA fluorescence | HepG2 | read off a plot | relative to: human NTCP WT, higher = more preS1 binding | binding relative to WT | 0.1 fold |
| CCC1C=C(C(=O)NC2(C(=O)O)CC2CC)C2CCC(=O)C2C1 (centres unmarked) | COI1/TIFY10A, with JAZ1 (Arabidopsis thaliana, UniProt O04197+Q9LMA8) | saturation binding | – | dialyzed COI1, together with: 1 µM Ins(1,2,4,5,6)P5 | – | Kd | 30 ± 5 nM |
| CCOP(=O)(OCC)Oc1cc(C)nc(C(C)C)n1 | ACHE (Homo sapiens, UniProt P22303) | enzyme activity, inhibitor, Ellman | – | with preincubation | – | IC50 | ~500 nM |
| NTCP I29V/Q84R/N86K/L161I (Macaca fascicularis) | preS1 2-48 | preS1-TAMRA fluorescence | HepG2 | read off a plot | relative to: human NTCP WT, higher = more preS1 binding | binding relative to WT | 0.17 fold |
